Experimental data collected from several papers.
A part holds a random share of what one study measured.

Sample 1
Target: Histone acetyltransferase KAT6A, both winged helices, GST fusion (KAT6A, Homo sapiens, UniProt Q92794, residues 1-181)
Method: protein binding microarray
Molecule type: double-stranded DNA, one strand shown
Sample: in vitro
Tested at: not given
Setting: 8-mer, flanks averaged, mean of 2 arrays, mostly near background
Reference: not given
Reading: higher = stronger binding
Construct (chain): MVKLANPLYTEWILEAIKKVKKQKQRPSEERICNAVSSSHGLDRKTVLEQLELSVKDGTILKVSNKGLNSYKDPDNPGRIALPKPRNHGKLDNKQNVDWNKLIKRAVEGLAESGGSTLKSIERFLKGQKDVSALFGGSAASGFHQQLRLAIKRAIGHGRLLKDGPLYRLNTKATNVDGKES
Strand	E-score
AGCTGGCA	-0.197
AGCCTTTA	-0.0444
TTCATGAA	0.0759
AATGGCGA	-0.00587
GTTCACAA	0.112
GAACACCA	-0.0966
ACACTTTA	-0.15
ACCCCACG	-0.0986

Sample 2
Target: Ras GTPase-activating protein-binding protein 1, C-terminal RGG region (G3BP1, Homo sapiens, UniProt Q13283)
UniProt Q13283, sequence (whole entry, looked up): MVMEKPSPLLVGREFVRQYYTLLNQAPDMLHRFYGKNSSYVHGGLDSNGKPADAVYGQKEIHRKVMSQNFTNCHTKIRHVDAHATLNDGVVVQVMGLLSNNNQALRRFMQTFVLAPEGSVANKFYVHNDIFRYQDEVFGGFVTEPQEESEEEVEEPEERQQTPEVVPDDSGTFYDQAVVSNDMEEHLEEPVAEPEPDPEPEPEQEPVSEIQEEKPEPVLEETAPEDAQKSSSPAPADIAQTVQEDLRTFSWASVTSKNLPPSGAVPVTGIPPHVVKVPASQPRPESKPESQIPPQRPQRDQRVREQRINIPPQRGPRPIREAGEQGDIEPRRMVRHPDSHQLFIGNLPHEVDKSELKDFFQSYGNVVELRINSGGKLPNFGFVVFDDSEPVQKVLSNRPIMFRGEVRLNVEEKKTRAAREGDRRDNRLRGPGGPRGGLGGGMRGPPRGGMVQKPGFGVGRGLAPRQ
Method: RNA Bind-n-Seq
Molecule type: RNA
Sample: in vitro
Tested at: 1 µM
Setting: whole 134-nt RNA, ends assumed
Added: 150 mM KCl
Reference: input library
Reading: higher = stronger binding
Strand	log2 enrichment
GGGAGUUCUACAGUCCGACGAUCAAGUCCUGUGCUACACAUCGUAUGUACCGAAUCGGAAAAAAAGGUUUUUGGUUUGGAAAGUAUUAUGUUACGCCGUUCGGAUCUGCACUUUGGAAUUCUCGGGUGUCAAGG	-2.39
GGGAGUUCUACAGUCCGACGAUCAGUCCUGUGCUACACAUCGUAUGUACCGAAUCAAAUUUUUAAACCCAAACCCCCAAAAAAGUAUUAUGUUACGCCGUUCGGAUCUGCACUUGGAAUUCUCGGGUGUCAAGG	-1
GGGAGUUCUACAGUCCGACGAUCGUCCUGUGCUACACAUCGUAUGUACCGAAUCGGGGUUUUUGGGUUUUUGGUUUUUGGGGAAAGUAUUAUGUUACGCCGUUCGGAUCUGCAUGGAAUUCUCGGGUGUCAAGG	-0.8
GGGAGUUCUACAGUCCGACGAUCCUGUGCUACACAUCGUAUGUACCGAAUCGGGUUUUUUUGGGAAAAAAAGGGAAAAAAAGGGAAAGUAUUAUGUUACGCCGUUCGGAUCUGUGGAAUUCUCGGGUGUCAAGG	-2.15
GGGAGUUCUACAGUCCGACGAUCCACAGACAACACGCACCCACACAGACACAGAGGGAAGGGGUUGGGAUGGGGACAGGGUGCACAGCAGGGCGGGGUAGGACCCCAGCCCCUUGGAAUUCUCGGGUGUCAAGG	-0.08
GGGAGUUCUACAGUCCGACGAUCGUCCUGUGCUACACAUCGUAUGUACCGAAUCGGUUUUUUGGUUUUUUGGUUUUUUGGGAAAGUAUUAUGUUACGCCGUUCGGAUCUGCACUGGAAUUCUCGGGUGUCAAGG	-1.5

Sample 3
Target: Interferon regulatory factor 3, full length, phosphomimetic (IRF3, Homo sapiens, UniProt Q14653, residues 1-427, S386D/S396D/S398D/S402D/T404D/S405D)
UniProt Q14653, sequence (whole entry, unmodified, looked up): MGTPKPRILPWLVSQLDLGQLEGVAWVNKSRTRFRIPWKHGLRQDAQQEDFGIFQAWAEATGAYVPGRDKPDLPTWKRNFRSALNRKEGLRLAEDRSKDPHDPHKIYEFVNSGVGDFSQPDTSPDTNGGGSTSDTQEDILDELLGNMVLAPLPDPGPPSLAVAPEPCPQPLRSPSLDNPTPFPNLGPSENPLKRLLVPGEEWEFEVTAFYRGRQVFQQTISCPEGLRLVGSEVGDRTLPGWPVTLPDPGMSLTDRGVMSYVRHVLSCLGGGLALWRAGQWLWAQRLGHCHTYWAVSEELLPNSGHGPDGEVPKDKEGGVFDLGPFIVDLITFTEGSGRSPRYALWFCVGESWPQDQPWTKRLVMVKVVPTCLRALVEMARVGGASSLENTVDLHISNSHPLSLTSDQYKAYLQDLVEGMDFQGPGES
Method: protein-binding microarray
Molecule type: double-stranded DNA, one strand shown
Sample: in vitro
Tested at: 2540 nM top
Setting: 60-bp whole probe
Added: salmon DNA 0.4 mg/ml
Reference: random background probes
Reading: higher = stronger binding
Constant ends, left off below: GCCTAGCAC … GTCTTGATTCGCTTGACGCTGCTG
Strand	fitted relative affinity
GACCGTTTCGGGTTTCGGGACGTGCTA	5.83 z-score
GACGGTCTAGGTTTCGGGACGTGCTAG	1.94 z-score
GACGGACTGGACTGTCGGGACGTGCTA	-0.467 z-score
TTAGTTTTCGGGTATCGGTTAGTGCTA	2.71 z-score
GACGATATCAGGACTGGAGACGTGCTA	0.445 z-score

Single results of other studies
Molecule	target	test	test system	conditions	how to read	quantity	result
PhoQ, residues 284 288 289 292 302 303 SLKLQV	PhoP, residues 12 14 15 18 19 AYFRS (Escherichia coli, UniProt P23836)	Sort-seq, measured: YFP reporter	E. coli	PhoQ-PhoP variant library, added: 10 µM Mg2+	reference: high Mg2+ state, higher = stronger signaling	fold induction	6.14

Repeated from above (sample 1):
Strand	E-score
ACACTTTA	-0.15
AATGGCGA	-0.00587
TTCATGAA	0.0759
